Measurements from different studies.
Numbered parts are unrelated; each lists some results of a single study.
Chain of UniProt Q8IYT8 (whole entry, looked up): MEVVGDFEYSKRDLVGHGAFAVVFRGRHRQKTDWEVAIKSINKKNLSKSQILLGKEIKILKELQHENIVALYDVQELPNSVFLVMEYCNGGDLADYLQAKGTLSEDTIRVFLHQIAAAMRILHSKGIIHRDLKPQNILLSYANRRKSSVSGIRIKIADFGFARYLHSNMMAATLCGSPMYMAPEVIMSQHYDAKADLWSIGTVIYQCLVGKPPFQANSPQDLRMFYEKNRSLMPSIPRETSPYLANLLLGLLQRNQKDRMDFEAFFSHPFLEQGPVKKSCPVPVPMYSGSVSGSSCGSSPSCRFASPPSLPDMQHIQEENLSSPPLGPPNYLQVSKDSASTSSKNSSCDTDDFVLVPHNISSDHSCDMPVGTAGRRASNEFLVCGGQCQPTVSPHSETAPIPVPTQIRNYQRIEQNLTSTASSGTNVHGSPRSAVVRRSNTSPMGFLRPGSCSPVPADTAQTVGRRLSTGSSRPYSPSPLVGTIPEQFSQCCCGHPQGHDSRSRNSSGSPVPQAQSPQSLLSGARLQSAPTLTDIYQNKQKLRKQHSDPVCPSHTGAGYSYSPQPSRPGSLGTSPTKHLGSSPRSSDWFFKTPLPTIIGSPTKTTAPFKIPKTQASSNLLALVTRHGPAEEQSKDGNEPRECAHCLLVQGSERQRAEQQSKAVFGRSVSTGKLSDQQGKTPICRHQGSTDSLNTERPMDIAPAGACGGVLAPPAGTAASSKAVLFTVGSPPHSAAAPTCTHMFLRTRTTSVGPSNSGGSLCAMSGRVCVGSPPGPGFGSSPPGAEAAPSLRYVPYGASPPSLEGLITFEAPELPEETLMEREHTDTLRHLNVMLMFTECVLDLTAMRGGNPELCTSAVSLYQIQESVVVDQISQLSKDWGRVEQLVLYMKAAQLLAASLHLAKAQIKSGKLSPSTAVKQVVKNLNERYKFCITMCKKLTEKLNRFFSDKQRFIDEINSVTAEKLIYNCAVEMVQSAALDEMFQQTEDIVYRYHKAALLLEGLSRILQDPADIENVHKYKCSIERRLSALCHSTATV
Chain of UniProt Q6PHR2 (whole entry, looked up): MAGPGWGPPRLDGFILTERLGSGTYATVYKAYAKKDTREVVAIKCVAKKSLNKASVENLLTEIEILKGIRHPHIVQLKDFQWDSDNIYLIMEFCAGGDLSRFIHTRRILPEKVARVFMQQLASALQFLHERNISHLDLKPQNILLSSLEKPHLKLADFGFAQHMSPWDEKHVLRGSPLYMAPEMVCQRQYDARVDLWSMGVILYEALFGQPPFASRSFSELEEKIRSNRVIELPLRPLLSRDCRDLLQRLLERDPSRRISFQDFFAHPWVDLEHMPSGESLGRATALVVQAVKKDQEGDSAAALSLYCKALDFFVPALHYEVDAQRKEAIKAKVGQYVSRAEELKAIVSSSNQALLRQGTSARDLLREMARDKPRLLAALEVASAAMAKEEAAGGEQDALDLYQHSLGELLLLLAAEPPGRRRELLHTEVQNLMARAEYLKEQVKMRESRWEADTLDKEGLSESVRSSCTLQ
Chain of UniProt O75676 (whole entry, looked up): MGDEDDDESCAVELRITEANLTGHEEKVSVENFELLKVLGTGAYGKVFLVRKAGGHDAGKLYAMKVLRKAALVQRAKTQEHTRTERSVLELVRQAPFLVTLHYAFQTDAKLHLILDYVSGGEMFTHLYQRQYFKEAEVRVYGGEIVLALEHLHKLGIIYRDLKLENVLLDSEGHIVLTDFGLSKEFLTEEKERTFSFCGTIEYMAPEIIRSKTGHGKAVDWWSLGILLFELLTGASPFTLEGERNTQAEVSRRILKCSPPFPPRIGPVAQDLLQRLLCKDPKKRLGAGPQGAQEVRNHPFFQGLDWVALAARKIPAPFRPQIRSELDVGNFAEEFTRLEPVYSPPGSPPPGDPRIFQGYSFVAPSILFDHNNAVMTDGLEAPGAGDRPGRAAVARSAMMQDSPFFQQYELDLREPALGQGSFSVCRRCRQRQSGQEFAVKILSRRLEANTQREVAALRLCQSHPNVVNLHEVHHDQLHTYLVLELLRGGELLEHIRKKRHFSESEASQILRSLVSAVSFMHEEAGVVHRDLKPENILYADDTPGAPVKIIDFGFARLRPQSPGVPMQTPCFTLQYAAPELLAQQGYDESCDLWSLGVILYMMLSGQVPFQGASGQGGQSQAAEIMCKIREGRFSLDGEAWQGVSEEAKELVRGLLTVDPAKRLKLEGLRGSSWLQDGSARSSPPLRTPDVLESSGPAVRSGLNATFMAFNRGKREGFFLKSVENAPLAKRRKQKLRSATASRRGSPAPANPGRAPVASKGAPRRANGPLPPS
Chain of UniProt Q02763 (whole entry, looked up): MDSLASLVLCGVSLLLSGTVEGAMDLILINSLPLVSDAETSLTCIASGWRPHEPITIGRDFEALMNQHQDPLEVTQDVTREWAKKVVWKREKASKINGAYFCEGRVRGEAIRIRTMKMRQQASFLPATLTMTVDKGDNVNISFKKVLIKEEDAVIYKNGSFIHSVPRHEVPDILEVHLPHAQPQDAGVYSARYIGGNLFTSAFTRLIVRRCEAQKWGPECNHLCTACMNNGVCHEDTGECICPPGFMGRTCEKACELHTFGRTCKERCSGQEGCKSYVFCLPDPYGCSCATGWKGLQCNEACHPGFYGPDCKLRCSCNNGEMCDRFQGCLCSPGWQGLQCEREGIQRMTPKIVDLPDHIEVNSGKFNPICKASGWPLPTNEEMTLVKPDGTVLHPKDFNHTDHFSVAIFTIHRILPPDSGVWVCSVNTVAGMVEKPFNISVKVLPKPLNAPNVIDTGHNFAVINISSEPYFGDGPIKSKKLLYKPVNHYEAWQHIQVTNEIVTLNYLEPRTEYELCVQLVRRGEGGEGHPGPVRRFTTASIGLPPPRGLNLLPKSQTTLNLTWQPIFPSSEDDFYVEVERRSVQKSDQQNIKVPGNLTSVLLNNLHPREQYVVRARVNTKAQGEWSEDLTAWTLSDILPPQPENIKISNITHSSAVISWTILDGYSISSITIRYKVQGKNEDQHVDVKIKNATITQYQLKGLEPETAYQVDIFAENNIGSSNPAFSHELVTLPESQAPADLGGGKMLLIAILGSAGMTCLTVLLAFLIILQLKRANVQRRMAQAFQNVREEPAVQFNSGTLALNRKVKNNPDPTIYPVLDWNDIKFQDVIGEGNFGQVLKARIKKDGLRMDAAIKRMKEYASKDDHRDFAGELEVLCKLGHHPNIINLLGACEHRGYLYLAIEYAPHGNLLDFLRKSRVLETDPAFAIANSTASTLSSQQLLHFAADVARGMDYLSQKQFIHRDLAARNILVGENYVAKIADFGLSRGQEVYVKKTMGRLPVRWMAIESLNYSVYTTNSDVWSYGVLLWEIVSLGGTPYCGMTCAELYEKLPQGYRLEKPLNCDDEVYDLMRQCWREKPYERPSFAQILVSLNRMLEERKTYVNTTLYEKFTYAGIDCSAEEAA
Chain of UniProt Q13043 (whole entry, looked up): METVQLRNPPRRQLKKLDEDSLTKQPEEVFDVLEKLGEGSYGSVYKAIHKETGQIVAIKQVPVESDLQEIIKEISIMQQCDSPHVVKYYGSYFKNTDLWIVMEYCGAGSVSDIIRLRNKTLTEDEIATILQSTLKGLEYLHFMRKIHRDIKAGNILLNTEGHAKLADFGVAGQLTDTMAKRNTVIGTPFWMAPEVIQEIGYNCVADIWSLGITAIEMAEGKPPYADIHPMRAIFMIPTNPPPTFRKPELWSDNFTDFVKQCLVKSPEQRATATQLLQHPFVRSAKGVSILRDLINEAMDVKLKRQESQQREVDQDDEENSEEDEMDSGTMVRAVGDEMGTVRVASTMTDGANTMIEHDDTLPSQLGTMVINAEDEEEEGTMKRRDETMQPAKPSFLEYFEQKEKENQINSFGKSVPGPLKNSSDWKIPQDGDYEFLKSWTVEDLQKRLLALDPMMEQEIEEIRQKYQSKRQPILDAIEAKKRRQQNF
Chain of UniProt P06239 (whole entry, looked up): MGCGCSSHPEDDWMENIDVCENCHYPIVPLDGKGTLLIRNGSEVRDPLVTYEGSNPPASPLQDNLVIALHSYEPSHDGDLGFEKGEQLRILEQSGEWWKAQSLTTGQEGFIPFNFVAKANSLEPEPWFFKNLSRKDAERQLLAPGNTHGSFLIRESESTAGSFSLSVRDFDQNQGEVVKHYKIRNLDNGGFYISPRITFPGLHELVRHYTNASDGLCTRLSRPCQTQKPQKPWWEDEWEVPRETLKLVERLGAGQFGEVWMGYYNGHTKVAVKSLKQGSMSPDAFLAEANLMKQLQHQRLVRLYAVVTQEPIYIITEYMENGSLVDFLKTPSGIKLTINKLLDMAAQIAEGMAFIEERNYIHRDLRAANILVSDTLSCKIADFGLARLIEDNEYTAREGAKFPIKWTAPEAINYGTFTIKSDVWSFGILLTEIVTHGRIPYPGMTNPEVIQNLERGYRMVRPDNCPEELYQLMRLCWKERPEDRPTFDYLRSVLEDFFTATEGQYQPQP

Set 1
Target: ATP-dependent RNA helicase DDX3X, helicase core (DDX3X, Homo sapiens, UniProt O00571, residues 132-607)
Chain of UniProt O00571 (132-607, looked up): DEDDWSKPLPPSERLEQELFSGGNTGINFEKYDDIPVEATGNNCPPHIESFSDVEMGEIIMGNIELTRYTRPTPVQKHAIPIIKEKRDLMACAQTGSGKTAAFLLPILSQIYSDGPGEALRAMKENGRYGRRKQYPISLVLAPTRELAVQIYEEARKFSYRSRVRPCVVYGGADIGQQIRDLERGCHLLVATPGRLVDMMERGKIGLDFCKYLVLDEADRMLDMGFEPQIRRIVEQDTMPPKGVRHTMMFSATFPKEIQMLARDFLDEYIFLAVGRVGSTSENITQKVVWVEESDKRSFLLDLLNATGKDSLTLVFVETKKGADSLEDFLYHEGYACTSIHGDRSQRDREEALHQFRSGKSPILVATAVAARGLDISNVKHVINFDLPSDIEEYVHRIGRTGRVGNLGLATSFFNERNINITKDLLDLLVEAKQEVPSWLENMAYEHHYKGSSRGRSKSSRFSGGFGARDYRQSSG
Technique: RNA Bind-n-Seq
Molecule type: RNA
Matrix: in vitro
Concentration: 90 pmol
Notes: 4-mer, random 30-nt RNA, single round
Added: 3 µM DMDA-PatA, 2 mM ADP, 2 mM phosphate
Baseline: input library
Direction: higher = stronger binding
Sequence	4-mer enrichment
UCUC	0.867 fold
AACU	0.824 fold
UUUU	1.13 fold
GAAC	0.908 fold
UGGU	0.971 fold
AAGA	1.19 fold
CCCG	1.04 fold
UCGC	0.924 fold

Set 2
SMILES: CN(C)c1ncnc(-c2ccc3nc(Nc4cc(CN5CCN(C(=O)CC(F)(F)F)CC5)ccn4)[nH]c3c2)c1Cl
Observed: cell-free assay
Technique: competition with immobilised ligand
Concentration: 1 µM
target	remaining binding
EGFR (Homo sapiens, UniProt P00533, L861Q)	96%
Ribosomal protein S6 kinase alpha-4, C-terminal kinase domain (RPS6KA4, Homo sapiens, UniProt O75676)	73%
CDKL5 (Homo sapiens, UniProt O76039)	66%
Tyrosine-protein kinase ABL1, non-phosphorylated (ABL1, Homo sapiens, UniProt P00519)	26%
ERBB3 (Homo sapiens, UniProt P21860)	63%
MET (Homo sapiens, UniProt P08581)	69%
EPHA5 (Homo sapiens, UniProt P54756)	100%
KIT (Homo sapiens, UniProt P10721, A829P)	53%
NEK11 (Homo sapiens, UniProt Q8NG66)	55%
STK4 (Homo sapiens, UniProt Q13043)	95%
EPHB1 (Homo sapiens, UniProt P54762)	97%
AKT1 (Homo sapiens, UniProt P31749)	100%
HIPK2 (Homo sapiens, UniProt Q9H2X6)	86%
CAMK2A (Homo sapiens, UniProt Q9UQM7)	100%
PIKFYVE (Homo sapiens, UniProt Q9Y2I7)	81%
MAP2K2 (Homo sapiens, UniProt P36507)	74%
SBK3 (Homo sapiens, UniProt P0C264)	100%

Set 3
SMILES: O=C(Nc1ccc(Cl)cc1)c1ccccc1NCc1ccncc1
Observed: enzyme activity
Mode: inhibitor
Concentration: 0.5 µM
Baseline: control
target	remaining activity
WEE1 (Homo sapiens, UniProt P30291)	90.1%
MAP2K2 (Homo sapiens, UniProt P36507)	102%
LCK (Homo sapiens, UniProt P06239)	93.3%
FGFR1 (Homo sapiens, UniProt P11362)	83.7%
ULK2 (Homo sapiens, UniProt Q8IYT8)	104%
ULK3 (Homo sapiens, UniProt Q6PHR2)	84.7%
CSNK1G3 (Homo sapiens, UniProt Q9Y6M4)	105%
MST1R (Homo sapiens, UniProt Q04912)	90.5%
ACVR1B (Homo sapiens, UniProt P36896)	95.8%
TEK (Homo sapiens, UniProt Q02763)	92.4%
FGFR3 (Homo sapiens, UniProt P22607)	92.2%
TAOK2 (Homo sapiens, UniProt Q9UL54)	102%
RPS6KA2 (Homo sapiens, UniProt Q15349)	94.1%

Mixed results
Technique: cross-linking MS
Matrix: cell fractions
Molecule	partner	setting	cross-linked residues
CFL1 (Homo sapiens, UniProt P23528)	THUMPD2 (Homo sapiens, UniProt Q9BTF0)	added: DHSO	E28 to D119
CCDC22 (Homo sapiens, UniProt O60826)	VPS35L (Homo sapiens, UniProt Q7Z3J2)	added: DSSO	K519 to K630
LGALS8 (Homo sapiens, UniProt O00214)	SPTAN1 (Homo sapiens, UniProt Q13813)	added: DMTMM	K279 to E1117
SRFBP1 (Homo sapiens, UniProt Q8NEF9)	DDX49 (Homo sapiens, UniProt Q9Y6V7)	added: DSSO	K86 to K229

Excerpt of the above (set 1):
Sequence	4-mer enrichment
AAGA	1.19 fold
UCGC	0.924 fold
UGGU	0.971 fold
